Assay results collected from several papers.
Parts stem from different laboratories: compare values within a part only.

Series 1
Target: RNA binding protein fox-1 homolog 2, RRM domain, GST-SBP tag (RBFOX2, Homo sapiens, UniProt O43251-10, residues 100-194)
Technique: RNA Bind-n-Seq
Molecule type: RNA
Sample: in vitro
Concentration: 365 nM
Notes: natural RNA segment, single round, ends assumed
Reference: no-protein control
Reading: higher = stronger binding
`GGGAGUUCUACAGUCCGACGAUCCUGCUGCCCGUCCUGUGCUGGGGGCAUGCUGGGACCAGCCGCACCCAGGCCCCAAUGCUUGUGUGUGGACCAGCGGCUGCAGCCUUCUAGCCCCUCCUCCCCGCGAGACUUGGAAUUCUCGGGUGCCAA` — result for “RBNS enrichment (R)”: 2.29.
`GGGAGUUCUACAGUCCGACGAUCGUUCACCCGAGAUGCCCAGGGGUACCGCCUCCAGCCUCAGGCCUGGAGCAUUCCAUCAAAGUUGGAAUUAGGGGAAGGAGGCCCACUGUCCUCCCCGGUCUCCUGAGAGUUGGAAUUCUCGGGUGCCAA` — result for “RBNS enrichment (R)”: 0.406.
For `GGGAGUUCUACAGUCCGACGAUCCAUGUUUGUGACUGUAACCAUUUGUAUGAAUUAUUUUAAAGAAAUAAAAAUCCCAGAAAGAGCCGGCCGCCUGGCACCAGUUUUAAUGGCUUCAUCAAAUGGGAGCACUGUGGAAUUCUCGGGUGCCAA`, “RBNS enrichment (R)” read 0.409.
`GGGAGUUCUACAGUCCGACGAUCUAGAACUCACUGGCCCAGUGGUGUUCUCACUCCUACCCCACCCACCCCCUGCCUGUCCCCAAAUUGAAGAUCCUUCCUUGCCUGUGGCUUGAUGCGGGGCGGGUAAAGGGUGGAAUUCUCGGGUGCCAA` — result for “RBNS enrichment (R)”: 0.558.

Series 2
Target: Interferon regulatory factor 3, full length, phosphomimetic (IRF3, Homo sapiens, UniProt Q14653, residues 1-427, S386D/S396D/S398D/S402D/T404D/S405D)
Sequence of UniProt Q14653 (whole entry, unmodified, looked up): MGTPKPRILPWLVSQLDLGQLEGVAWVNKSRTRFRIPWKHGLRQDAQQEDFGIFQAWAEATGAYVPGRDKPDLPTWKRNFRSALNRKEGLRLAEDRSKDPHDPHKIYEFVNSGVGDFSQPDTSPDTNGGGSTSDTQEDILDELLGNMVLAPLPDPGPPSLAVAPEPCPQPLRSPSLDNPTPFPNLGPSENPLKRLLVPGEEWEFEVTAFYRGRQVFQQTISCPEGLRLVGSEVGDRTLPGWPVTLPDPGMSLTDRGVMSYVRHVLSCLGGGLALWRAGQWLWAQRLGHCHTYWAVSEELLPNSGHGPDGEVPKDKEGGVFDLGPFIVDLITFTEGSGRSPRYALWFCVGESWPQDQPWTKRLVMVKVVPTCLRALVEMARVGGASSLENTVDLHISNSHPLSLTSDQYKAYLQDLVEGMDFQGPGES
Technique: protein-binding microarray
Molecule type: double-stranded DNA, one strand shown
Sample: in vitro
Concentration: 2540 nM top
Notes: 60-bp whole probe
Together with: salmon DNA 0.4 mg/ml
Reference: random background probes
Reading: higher = stronger binding
Constant ends, left off below: GCCTAGCAC … GTCTTGATTCGCTTGACGCTGCTG
For `GGGGTTTCGGATGGGATGTCGTGCTAG`, “fitted relative affinity” read 2.13 z-score.
Under “fitted relative affinity”, `TTAGGTATCGTTCTCCTTTAGTGCTAG` is recorded as 4.49 z-score.
`TCAATGGTCCTGGTTTCAACTGTGCTA` — result for “fitted relative affinity”: -0.107 z-score.
`GACGGACTGCTAATGCTGACGTGCTAG`: “fitted relative affinity” -0.681 z-score.
`TCATGACTCTGCCTCTAACTGTGCTAG` — result for “fitted relative affinity”: -0.705 z-score.

Series 3
Target: Phosphate system positive regulatory protein PHO4, full length, GST-tagged (PHO4, Saccharomyces cerevisiae, UniProt P07270, residues 1-312)
Technique: competition protein-binding microarray
Molecule type: double-stranded DNA, one strand shown
Sample: in vitro
Concentration: 2 µM
Notes: whole 60-bp probe, lowest competitor level
Together with: Cbf1 competitor, 0.05 µM
Reading: higher = stronger binding
Target sequence (chain): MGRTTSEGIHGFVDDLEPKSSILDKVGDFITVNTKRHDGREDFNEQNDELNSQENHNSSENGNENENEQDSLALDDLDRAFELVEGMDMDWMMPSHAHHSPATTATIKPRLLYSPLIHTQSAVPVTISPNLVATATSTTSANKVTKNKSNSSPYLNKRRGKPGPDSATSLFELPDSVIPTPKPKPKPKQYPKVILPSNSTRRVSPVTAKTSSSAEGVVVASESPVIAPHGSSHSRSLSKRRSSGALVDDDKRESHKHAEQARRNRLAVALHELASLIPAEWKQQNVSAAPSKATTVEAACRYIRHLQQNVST
For `ACGTTTTGTCCAGATGTTCATCACCGAACAAACGTCGTCTTGATTCGCTTGACGCTGCTG`, the fluorescence intensity was 5650 a.u.
`CGCCGACTCTGCGCATTCGTGGCCGCTGCTCACTCCGTCTTGATTCGCTTGACGCTGCTG` gave a fluorescence intensity of 5150 a.u.
`CAGTTGCTGACGAGTCACGTTGATGAGCAAGAATACGTCTTGATTCGCTTGACGCTGCTG` has a fluorescence intensity of 12500 a.u.
With `CGGGGTTAAGTTTGTGTTGTGGGTGGCTTGCAGCAGGTCTTGATTCGCTTGACGCTGCTG` the fluorescence intensity was 4580 a.u.

Mixed results
With `PhoQ, residues 284 288 289 292 302 303 TLSLKA` the fold induction was 1.8 (PhoP, residues 12 14 15 18 19 NMSFL (Escherichia coli, UniProt P23836); Sort-seq, measured: YFP reporter; E. coli; PhoQ-PhoP variant library, together with: 10 µM Mg2+; reference: high Mg2+ state, higher = stronger signaling).
